Measurements of several laboratories.
Numbered parts are unrelated; each lists some results of a single study.

Block 1
Target: RNA binding protein fox-1 homolog 2, RRM domain, GST-SBP tag (RBFOX2, Homo sapiens, UniProt O43251-10, residues 100-194)
Technique: RNA Bind-n-Seq
Molecule type: RNA
Sample: in vitro
Tested at: 365 nM
Notes: natural RNA segment, single round, ends assumed
Reference: no-protein control
Direction: higher = stronger binding
Residues (chain): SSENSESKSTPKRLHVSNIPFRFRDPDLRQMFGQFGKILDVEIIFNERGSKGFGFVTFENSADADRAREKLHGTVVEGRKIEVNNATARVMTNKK
Strand | RBNS enrichment (R)
GGGAGUUCUACAGUCCGACGAUCAAAGACAUGAAACCUCAGGUAUCCUGCUUUAAGUUGAUAACUCCCUCUGGGAGCUGGAGAAUCGCUCUGGUGGAUGGGUGUACAGAUUUGUAUAUAAUGUCAUUUUUACGUGGAAUUCUCGGGUGCCAA | 0.279
GGGAGUUCUACAGUCCGACGAUCUUGAUACGAGGGCAGUCUUAACUUGUGUUAAGGCCUGUGUGUAGCAUUGAAGGGAGGAGUUGCUUAAACCAAUGGGACUAAAACCUGAUGGGACAAUAACGCCUUUGGAGUGGAAUUCUCGGGUGCCAA | 0.267
GGGAGUUCUACAGUCCGACGAUCGCCCUGCAGCCACAGUGUUCUGUUGGAGAAACUUGGGGAAGUGUUUUCUGAACCAGUUCUUUUUCUUGGGGUAGAGCGUGAAAUCCAGACCUGUUUUUGAAAGGACAGCAUGGAAUUCUCGGGUGCCAA | 0.438
GGGAGUUCUACAGUCCGACGAUCGAAGCUGGUAGAGCAGCUUAAGAUGGAAGCCAAUAUCGACAGGAUAAAGGUGUCCAAGGCAGCUGCAGAUUUGAUGGCCUACUGUGAAGCACAUGCCAAGGAAGACCCCCUGGAAUUCUCGGGUGCCAA | 0.267

Block 2
Target: Sal-like protein 4, full length isoform B (SALL4, Homo sapiens, UniProt Q9UJQ4-2, residues 1-616)
Technique: universal PBM
Molecule type: double-stranded DNA, one strand shown
Sample: in vitro
Tested at: not given
Notes: 8-mer, flanks averaged, mean of replicates
Direction: higher = stronger binding
Residues (chain): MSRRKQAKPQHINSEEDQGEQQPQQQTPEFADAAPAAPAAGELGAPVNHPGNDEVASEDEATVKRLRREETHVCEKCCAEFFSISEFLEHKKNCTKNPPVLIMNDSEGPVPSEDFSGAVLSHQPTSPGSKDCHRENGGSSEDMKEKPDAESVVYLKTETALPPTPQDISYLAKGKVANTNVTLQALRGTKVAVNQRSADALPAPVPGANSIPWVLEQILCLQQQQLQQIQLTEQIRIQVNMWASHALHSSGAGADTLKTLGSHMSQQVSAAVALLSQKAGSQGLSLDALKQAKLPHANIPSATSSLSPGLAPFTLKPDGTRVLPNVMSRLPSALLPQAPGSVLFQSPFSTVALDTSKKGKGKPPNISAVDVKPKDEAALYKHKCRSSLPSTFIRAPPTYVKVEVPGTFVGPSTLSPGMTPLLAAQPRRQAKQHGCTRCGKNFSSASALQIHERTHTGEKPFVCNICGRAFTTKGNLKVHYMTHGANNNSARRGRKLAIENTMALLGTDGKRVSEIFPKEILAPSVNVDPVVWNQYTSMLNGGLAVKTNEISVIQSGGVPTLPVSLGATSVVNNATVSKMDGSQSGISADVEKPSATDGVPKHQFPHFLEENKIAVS
Strand | E-score
ACGCGGAA | -0.124
AAGATCCT | 0.144
AATAGGAT | 0.244
ACGGCACT | -0.206
AGGAGGTC | -0.0992
GCGAGCTA | -0.145

Block 3
Target: Interferon regulatory factor 5, full length, phosphomimetic (IRF5, Homo sapiens, UniProt Q13568-2, residues 1-514, K96S/S451D/S453D/S456D/S462D)
Technique: protein-binding microarray
Molecule type: double-stranded DNA, one strand shown
Sample: in vitro
Tested at: 250 nM
Notes: 60-bp whole probe
Added: salmon DNA 0.4 mg/ml
Reference: random background probes
Direction: higher = stronger binding
Strand | log fluorescence [z-score]
GCCTAGCACTCAGATTTCAATTAGAAACTGTGCTAGGTCTTGATTCGCTTGACGCTGCTG | 1.24
GCCTAGCACTTAGGACGGGGGACTGGGTTAGTGCTAGTCTTGATTCGCTTGACGCTGCTG | 0.941
GCCTAGCACTTTTTTTTCACTATTGCTTCGTGCTAGGTCTTGATTCGCTTGACGCTGCTG | 3.5
GCCTAGCACTCATATATACCTGTATAACTGTGCTAGGTCTTGATTCGCTTGACGCTGCTG | 0.373

Other studies, line by line
Substance | target | test | system | setting | scale | endpoint | value
PhoQ, residues 284 288 289 292 302 303 SLANIV | PhoP, residues 12 14 15 18 19 NFCKL (Escherichia coli, UniProt P23836) | Sort-seq, refers to: YFP reporter | E. coli | PhoQ-PhoP variant library, added: 10 µM Mg2+ | reference: high Mg2+ state, higher = stronger signaling | fold induction | 10.8

For quick reference, copied from above (block 3):
Strand | log fluorescence [z-score]
GCCTAGCACTTTTTTTTCACTATTGCTTCGTGCTAGGTCTTGATTCGCTTGACGCTGCTG | 3.5
GCCTAGCACTCATATATACCTGTATAACTGTGCTAGGTCTTGATTCGCTTGACGCTGCTG | 0.373
